Published values of several laboratories.
Numbered parts are unrelated; each lists some results of a single study. Changes are numbered by the printed parent chain.

Set 1 — method: protein-binding microarray; form: double-stranded DNA, one strand shown; sample: in vitro; concentration: 2200 nM top; notes: 60-bp whole probe; added: salmon DNA 0.4 mg/ml; reference: random background probes; direction: higher = stronger binding; all sequences stand within: GCCTAGCAC … GTCTTGATTCGCTTGACGCTGCTG
Target: Interferon regulatory factor 7, full length, phosphomimetic (IRF7, Homo sapiens, UniProt Q92985, residues 1-503, S471D/S472D/S475D/S476D/S477D/S483D/S484D/S487D)
Construct (chain): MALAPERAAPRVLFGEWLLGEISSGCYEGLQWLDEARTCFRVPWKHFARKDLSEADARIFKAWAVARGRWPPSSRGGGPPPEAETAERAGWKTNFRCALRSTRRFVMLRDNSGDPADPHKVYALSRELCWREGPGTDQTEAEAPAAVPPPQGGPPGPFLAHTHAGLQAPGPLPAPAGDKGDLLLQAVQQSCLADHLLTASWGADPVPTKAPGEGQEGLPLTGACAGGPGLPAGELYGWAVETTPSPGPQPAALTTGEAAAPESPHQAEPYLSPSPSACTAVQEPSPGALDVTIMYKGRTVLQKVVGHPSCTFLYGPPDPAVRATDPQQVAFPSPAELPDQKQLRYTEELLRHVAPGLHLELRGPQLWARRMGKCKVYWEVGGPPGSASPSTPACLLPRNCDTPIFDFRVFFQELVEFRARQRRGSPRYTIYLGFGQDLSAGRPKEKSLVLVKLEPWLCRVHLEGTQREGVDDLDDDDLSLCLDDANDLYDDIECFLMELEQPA
Under “fitted relative affinity”, `TCAATTCTCTGCTTGCGACTGTGCTAG` is recorded as 1.28 z-score.
For `GACGATCTCAGAATGGAGACGTGCTAG`, “fitted relative affinity” read -0.474 z-score.
For `GTGATCCGTCCGCCTCAGCCGTGCTAG`, “fitted relative affinity” read 0.601 z-score.
`GACGGTTGCCTTCTCCTGACGTGCTAG`: “fitted relative affinity” 0.768 z-score.
`TTAGGTATCGACCTTCGGTTAGTGCTA` — result for “fitted relative affinity”: 0.423 z-score.
`TTAGATTTCGGGACTTGATTAGTGCTA`: “fitted relative affinity” 0.971 z-score.
`TTTCGTATCTTCATTGTCATGTGCTAG`: “fitted relative affinity” 10.9 z-score.
`GACGGTTTCGACTAGCGGGACGTGCTA`: “fitted relative affinity” 3.8 z-score.
`CTGGAGGTTGGGCAAGGCCCGTGCTAG`: “fitted relative affinity” -1.62 z-score.
`TCAGATTTTTAGTTAGAACTGTGCTAG`: “fitted relative affinity” -0.104 z-score.
`GACGGTATCGCTATCGGGACGTGCTAG` — result for “fitted relative affinity”: 0.349 z-score.
Under “fitted relative affinity”, `TTAAGTATCGGGACTGGGTTAGTGCTA` is recorded as -0.413 z-score.

Set 2 — target: CCNB1, cyclin fold, Cln2 fusion (human); method: yeast growth competition, sequencing; sample: yeast; notes: strong parent motif; reference: not given; direction: higher = stronger binding
Parent: PKN2 docking peptide (human); VSAVRKLDFSDTM; partner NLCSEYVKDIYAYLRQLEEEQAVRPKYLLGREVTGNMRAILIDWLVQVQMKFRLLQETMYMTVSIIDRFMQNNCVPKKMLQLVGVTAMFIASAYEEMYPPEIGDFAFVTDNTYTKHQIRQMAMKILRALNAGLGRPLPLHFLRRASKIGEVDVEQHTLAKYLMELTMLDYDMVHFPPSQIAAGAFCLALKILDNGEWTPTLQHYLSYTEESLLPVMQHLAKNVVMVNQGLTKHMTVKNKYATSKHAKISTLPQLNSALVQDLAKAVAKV
Under “normalised enrichment score”, `VSAVRKHDFSDTM [L7H]` is recorded as 0.183.
Under “normalised enrichment score”, `VSAVRKLDFSQTM [D11Q]` is recorded as 3.
`VSAVRKLDFSDFM [T12F]` — result for “normalised enrichment score”: 3.55.
For `VSEVRKLDFSDTM [A3E]`, “normalised enrichment score” read 2.
`VSADRKLDFSDTM [V4D]`: “normalised enrichment score” 0.185.
Under “normalised enrichment score”, `VSAIRKLDFSDTM [V4I]` is recorded as 3.2.
`VSAVRKLAFSDTM [D8A]` — result for “normalised enrichment score”: 1.13.
Under “normalised enrichment score”, `VSRVRKLDFSDTM [A3R]` is recorded as 0.358.
`VSAVRQLDFSDTM [K6Q]` — result for “normalised enrichment score”: 2.83.
Under “normalised enrichment score”, `VSAPRKLDFSDTM [V4P]` is recorded as 0.306.
For `VSAVRKLQFSDTM [D8Q]`, “normalised enrichment score” read 2.07.
`VSAVRKTDFSDTM [L7T]` — result for “normalised enrichment score”: 0.126.
Under “normalised enrichment score”, `VSAVRFLDFSDTM [K6F]` is recorded as 1.96.
`VSAVKKLDFSDTM [R5K]` — result for “normalised enrichment score”: 2.42.
`VSAVRKLDFLDTM [S10L]` — result for “normalised enrichment score”: 2.69.

Set 3 — method: RNA Bind-n-Seq; form: RNA; sample: in vitro; concentration: 365 nM; reference: no-protein control; direction: higher = stronger binding
Target: RNA binding protein fox-1 homolog 2, RRM domain, GST-SBP tag (RBFOX2, Homo sapiens, UniProt O43251-10, residues 100-194)
Notes: natural RNA segment, single round, ends assumed
Residues (chain): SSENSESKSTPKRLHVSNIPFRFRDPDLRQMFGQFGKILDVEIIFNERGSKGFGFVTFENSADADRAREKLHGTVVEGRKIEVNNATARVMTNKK
Under “RBNS enrichment (R)”, `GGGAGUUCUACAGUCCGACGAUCGGGCCUUCUUCUCCAGAAGGCUGUUGCUGUCACUUGCUGCUAGGAGCCUCCAAGCUGAUCAAGCAAUUCUUUCCUGUAAUCUGAUAGGAGGCAGCAAGCAAGGACAUCCUUGGAAUUCUCGGGUGCCAA` is recorded as 0.244.
`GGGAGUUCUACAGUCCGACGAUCGGCACCACACUACAUCCCCAUGCCCCUGUGGAAGUCUGUUACUGCAGCACUGUGCCUGCCAGAGUUCCCACAGCACCCGAGGGAGAAGGUGAUGGCUGUCUCUCUCUAGUUGGAAUUCUCGGGUGCCAA`: “RBNS enrichment (R)” 0.797.
For `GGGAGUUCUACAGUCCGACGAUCCCUUUCUGUUUGGCCUGAUUAACAUUUAAAUUCUUGCCAAAAUUAAGGUAACUUUUAAAAAACACCUUUUAUAGGUGGAUCCAGCAGUCUGGCAACGCCCACAGUUACCAUGGAAUUCUCGGGUGCCAA`, “RBNS enrichment (R)” read 0.322.
Under “RBNS enrichment (R)”, `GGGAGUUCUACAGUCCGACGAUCGCGGGUGACUGACUGUUCCCUGAUGAUUUGGCCCACCUCCUGUGUUUGGACCUCUAGGGAGGAGGGUUUUGGUCAUACUCUCCUUAUCCUCGUGCACAGAAAUGCUCAGGUGGAAUUCUCGGGUGCCAA` is recorded as 0.94.
`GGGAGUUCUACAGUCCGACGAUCAUGUCUUAAUUCUUUGCCUGUGGGUAAGUGAGAGAAUGGCUGCCAGUAGUUGUUGGAGACCUGGUAGUGGGAAGGAUGUUAUGGGUCACUGGAAAGUGGCCAGUCUUCACUGGAAUUCUCGGGUGCCAA`: “RBNS enrichment (R)” 2.8.
`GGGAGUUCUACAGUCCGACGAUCCCCGUCUUCUCCAACACCACCUCUCCAGAGGCCAAGGAGGCCUUGGAAACGAUUCCCCCAGUCAUUCUGGGAACAUGUUGUAAGCACUGACUGGGACCAGGCACCAGGCAUGGAAUUCUCGGGUGCCAA` — result for “RBNS enrichment (R)”: 0.737.
`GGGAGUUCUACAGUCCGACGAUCUCUCCUUUGGGAUACUUAUGAACCUCUCACUAAUGUCCUGUGGAGAACAUUUUGGGAAACACUAUGUUAGAUAGUUCUUUAAGGAGACAAAACGGUAAUGAACAGAUAGCUGGAAUUCUCGGGUGCCAA`: “RBNS enrichment (R)” 0.71.
Under “RBNS enrichment (R)”, `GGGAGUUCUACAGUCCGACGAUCCCUUUUUUGGCAGCUCAGAUGGUGUAAAUUUUAAAAUUUUGUAUAGGUAUUUCAUAACAAAAAUAUGUAUUUCUUUUUUGUUAUUUUAUCUUGAAAACGGUACAUAUUUUUGGAAUUCUCGGGUGCCAA` is recorded as 0.943.
Under “RBNS enrichment (R)”, `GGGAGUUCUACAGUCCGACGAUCCCAAGCGAGACUAGCAGUCAUCCAGACCCCUGCCCACCUAGACUGUUUUCUGAGCCCUCCGGACCUGAGACUGAGUUUUGUCUUUUUCCUUUAGCCUUAGCAGUGGGUAUUGGAAUUCUCGGGUGCCAA` is recorded as 0.806.
Under “RBNS enrichment (R)”, `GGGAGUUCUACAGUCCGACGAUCAUGUAAAGAAAGUAUAACAAUUAUUUCUUUGUAUUUUAGGGGCUUUAACCGGAACAUCGUCUAGCUGGUGUUAGGAAUGUUUGCUUAAUUUCCAGACUUUUUUUUAAAAAUGGAAUUCUCGGGUGCCAA` is recorded as 0.56.
`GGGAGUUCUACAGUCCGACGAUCUCGAUGUGUGUGAUAUUCAGAGACUGGAGGAGCUGCUGACAUUAUCCUGUGUUUAGAUGCUUUAAUGUUCAUAAAGCCUGUCUUGUGACUGGACUGUCAGCUGUCCAACUUGGAAUUCUCGGGUGCCAA`: “RBNS enrichment (R)” 0.498.
For `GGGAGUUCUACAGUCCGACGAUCUGAGGAUCUCAAUUCAUACAGGUGAAAAUCCUUAAAGGACUCUAUGAUUUAAACUCUGGAGUCAAAGCUAGUGUGUGUGUCUGUCUUUGCUCCUGCUAAGACAUGGAAACUGGAAUUCUCGGGUGCCAA`, “RBNS enrichment (R)” read 0.35.

Set 4 — method: protein binding microarray; form: double-stranded DNA, one strand shown; sample: in vitro; concentration: not given; reference: not given; direction: higher = stronger binding
Target: Histone acetyltransferase KAT6A, winged helix 2, GST fusion (KAT6A, Homo sapiens, UniProt Q92794, residues 85-181)
Notes: 8-mer, flanks averaged, mean of 2 arrays, mostly near background
Residues (chain): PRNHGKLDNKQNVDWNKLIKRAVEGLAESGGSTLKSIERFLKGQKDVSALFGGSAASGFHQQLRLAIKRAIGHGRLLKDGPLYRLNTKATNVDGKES
`CGAAAGGA` has an E-score of -0.0529.
The E-score of `GGGGGACC` is reported as 0.0128.
`GTGTGTTA` has an E-score of -0.064.
With `CAAGAGCA` the E-score was 0.102.
With `CGGGGCGA` the E-score was 0.179.
`CGATACCA` has an E-score of 0.064.
`CAGGGGCC` has an E-score of 0.0918.
`GGTGAATA` gave an E-score of -0.00534.
`AATTGTCC` has an E-score of -0.132.
With `AATGGACC` the E-score was 0.00903.
`CAAAGTTA` has an E-score of 0.0281.
The E-score of `GGATGCTA` is reported as 0.0347.
`AGTACAAG` gave an E-score of -0.0732.
`GGGGTCAA` has an E-score of 0.0923.
`AATGTGCA` gave an E-score of -0.0805.
`ATTTGAGG` gave an E-score of -0.0102.
`CCGATTCG` has an E-score of 0.165.
`GCCGAAAC` gave an E-score of 0.131.
`CTCTCTCC` gave an E-score of -0.0532.

Some of these lines once more (set 4):
`GGTGAATA` gave an E-score of -0.00534.
`AATTGTCC` has an E-score of -0.132.
With `AATGGACC` the E-score was 0.00903.
`CAAAGTTA` has an E-score of 0.0281.
The E-score of `GGATGCTA` is reported as 0.0347.
`AGTACAAG` gave an E-score of -0.0732.
